Assay results gathered from unrelated publications.
Every numbered part comes from another study and shows a few of its results, in no order.
UniProt P08047, sequence (whole entry, looked up): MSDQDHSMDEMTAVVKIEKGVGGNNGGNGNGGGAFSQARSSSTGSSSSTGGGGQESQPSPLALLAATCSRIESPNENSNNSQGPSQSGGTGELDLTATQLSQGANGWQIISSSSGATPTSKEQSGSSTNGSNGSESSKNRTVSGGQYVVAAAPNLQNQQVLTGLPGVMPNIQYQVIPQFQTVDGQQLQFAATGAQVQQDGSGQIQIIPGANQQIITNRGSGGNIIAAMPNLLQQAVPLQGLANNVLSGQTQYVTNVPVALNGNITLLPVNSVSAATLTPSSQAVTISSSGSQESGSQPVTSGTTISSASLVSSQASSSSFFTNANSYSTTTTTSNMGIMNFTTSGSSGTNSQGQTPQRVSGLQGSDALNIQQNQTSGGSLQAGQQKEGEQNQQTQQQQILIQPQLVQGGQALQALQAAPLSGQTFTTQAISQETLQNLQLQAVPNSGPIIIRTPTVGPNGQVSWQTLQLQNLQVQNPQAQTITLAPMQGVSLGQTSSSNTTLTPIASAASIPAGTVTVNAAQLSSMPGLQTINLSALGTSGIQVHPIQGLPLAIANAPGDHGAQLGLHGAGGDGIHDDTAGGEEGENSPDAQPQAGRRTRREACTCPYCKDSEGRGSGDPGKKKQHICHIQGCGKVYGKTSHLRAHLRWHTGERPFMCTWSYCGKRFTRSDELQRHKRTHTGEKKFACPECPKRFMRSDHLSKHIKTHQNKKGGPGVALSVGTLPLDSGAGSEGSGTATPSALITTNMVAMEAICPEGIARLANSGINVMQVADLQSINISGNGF

Study 1 — technique: competition protein-binding microarray; form: double-stranded DNA, one strand shown; sample: in vitro; concentration: 2 µM; added: Pho4 competitor, 0.05 µM; reading: higher = stronger binding
Target: Centromere-binding protein 1, full length, His-tagged (CBF1, Saccharomyces cerevisiae, UniProt P17106, residues 1-351)
UniProt P17106, sequence (whole entry, looked up): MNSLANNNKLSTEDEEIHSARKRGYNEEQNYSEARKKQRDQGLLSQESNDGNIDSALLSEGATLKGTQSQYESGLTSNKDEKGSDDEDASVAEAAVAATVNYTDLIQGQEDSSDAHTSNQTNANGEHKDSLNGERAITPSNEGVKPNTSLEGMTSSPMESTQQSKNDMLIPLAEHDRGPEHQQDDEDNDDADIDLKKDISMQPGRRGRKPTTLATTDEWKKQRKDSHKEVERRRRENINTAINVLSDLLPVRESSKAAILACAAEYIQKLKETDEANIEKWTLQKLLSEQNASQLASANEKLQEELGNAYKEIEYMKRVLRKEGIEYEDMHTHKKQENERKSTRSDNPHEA
Setting: whole 60-bp probe, lowest competitor level
| Sequence | fluorescence intensity |
| --- | --- |
| TGTCTGGGACCGCTTCACGGGTCCAAATTACCACTTGTCTTGATTCGCTTGACGCTGCTG | 81.7 a.u. |
| AAAGCGGTAATTTGCAGAGTGGGTGCAGATATCTATGTCTTGATTCGCTTGACGCTGCTG | 74.6 a.u. |
| CTAAATCTGCGTTAGCTCGTGGTGAGTATTTGCGCGGTCTTGATTCGCTTGACGCTGCTG | 103 a.u. |

Study 2 — technique: universal PBM; form: double-stranded DNA, one strand shown; sample: in vitro; concentration: not given; reading: higher = stronger binding
Target: Sal-like protein 4, full length isoform B (SALL4, Homo sapiens, UniProt Q9UJQ4-2, residues 1-616)
Setting: 8-mer, flanks averaged, mean of replicates
Construct (chain): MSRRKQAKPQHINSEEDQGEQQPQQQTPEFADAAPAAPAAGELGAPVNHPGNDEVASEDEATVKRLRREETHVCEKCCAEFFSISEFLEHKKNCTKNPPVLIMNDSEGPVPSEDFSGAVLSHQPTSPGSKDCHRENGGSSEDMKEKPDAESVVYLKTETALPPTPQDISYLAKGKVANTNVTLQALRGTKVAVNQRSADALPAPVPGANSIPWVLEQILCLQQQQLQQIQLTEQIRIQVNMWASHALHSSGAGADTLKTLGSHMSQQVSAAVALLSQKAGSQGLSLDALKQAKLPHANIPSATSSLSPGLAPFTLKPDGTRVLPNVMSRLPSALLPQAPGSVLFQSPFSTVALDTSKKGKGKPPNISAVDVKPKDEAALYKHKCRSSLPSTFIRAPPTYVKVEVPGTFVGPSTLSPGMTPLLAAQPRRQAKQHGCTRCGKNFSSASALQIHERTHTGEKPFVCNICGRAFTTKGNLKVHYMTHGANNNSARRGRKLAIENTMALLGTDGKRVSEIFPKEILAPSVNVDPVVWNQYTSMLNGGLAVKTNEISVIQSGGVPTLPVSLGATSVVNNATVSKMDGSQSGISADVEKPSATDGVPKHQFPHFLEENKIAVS
| Sequence | E-score |
| --- | --- |
| ATGGAATA | 0.226 |
| CCTAAACC | -0.0375 |
| GCATACTA | 0.0456 |

Other studies, line by line
| Molecule | target | assay | system | conditions | scale | measurement | result |
| --- | --- | --- | --- | --- | --- | --- | --- |
| CCCCATCC | Transcription factor Sp1 (SP1, Homo sapiens, UniProt P08047, residues 1-785, full length assumed) | protein-binding microarray | double-stranded DNA, one strand shown, in vitro | not given, k-mer, scored over probes, only values ≥0.25 | higher = stronger binding | E-score | 0.329 |
| PhoQ, residues 284 288 289 292 302 303 SLANIV | PhoP, residues 12 14 15 18 19 FWNTL (Escherichia coli, UniProt P23836) | Sort-seq, refers to: YFP reporter | E. coli | PhoQ-PhoP variant library, added: 10 µM Mg2+ | baseline: high Mg2+ state, higher = stronger signaling | fold induction | 4.36 |

Repeated from above (study 1):
| Sequence | fluorescence intensity |
| --- | --- |
| CTAAATCTGCGTTAGCTCGTGGTGAGTATTTGCGCGGTCTTGATTCGCTTGACGCTGCTG | 103 a.u. |
